Experimental data gathered from unrelated publications.
A part holds a random share of what one study measured. Positions count from the first letter of the parent shown.
Chain of UniProt Q86Y07 (whole entry, looked up): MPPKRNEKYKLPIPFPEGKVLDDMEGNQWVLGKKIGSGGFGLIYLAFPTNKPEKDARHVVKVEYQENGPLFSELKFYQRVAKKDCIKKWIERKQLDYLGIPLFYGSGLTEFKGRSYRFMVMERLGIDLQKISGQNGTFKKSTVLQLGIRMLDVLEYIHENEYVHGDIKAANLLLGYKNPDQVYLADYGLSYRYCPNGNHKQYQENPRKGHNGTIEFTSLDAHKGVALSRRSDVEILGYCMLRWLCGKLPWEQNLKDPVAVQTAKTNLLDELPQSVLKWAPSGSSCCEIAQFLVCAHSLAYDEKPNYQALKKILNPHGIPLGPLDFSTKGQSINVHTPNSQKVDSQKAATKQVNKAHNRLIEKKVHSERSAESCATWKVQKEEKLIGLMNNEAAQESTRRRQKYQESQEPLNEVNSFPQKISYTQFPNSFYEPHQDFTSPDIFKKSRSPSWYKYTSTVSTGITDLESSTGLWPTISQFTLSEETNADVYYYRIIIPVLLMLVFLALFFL
Chain of UniProt P19784 (whole entry, looked up): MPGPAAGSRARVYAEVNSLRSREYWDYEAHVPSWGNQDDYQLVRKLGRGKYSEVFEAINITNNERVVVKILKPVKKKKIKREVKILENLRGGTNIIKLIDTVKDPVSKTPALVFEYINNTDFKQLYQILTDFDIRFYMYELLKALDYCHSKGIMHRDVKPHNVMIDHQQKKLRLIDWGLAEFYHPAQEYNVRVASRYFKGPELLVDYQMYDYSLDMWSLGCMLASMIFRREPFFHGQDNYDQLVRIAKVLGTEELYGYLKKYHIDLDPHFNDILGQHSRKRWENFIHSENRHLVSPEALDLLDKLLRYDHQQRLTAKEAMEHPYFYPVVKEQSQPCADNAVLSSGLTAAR
Chain of UniProt Q13188 (whole entry, looked up): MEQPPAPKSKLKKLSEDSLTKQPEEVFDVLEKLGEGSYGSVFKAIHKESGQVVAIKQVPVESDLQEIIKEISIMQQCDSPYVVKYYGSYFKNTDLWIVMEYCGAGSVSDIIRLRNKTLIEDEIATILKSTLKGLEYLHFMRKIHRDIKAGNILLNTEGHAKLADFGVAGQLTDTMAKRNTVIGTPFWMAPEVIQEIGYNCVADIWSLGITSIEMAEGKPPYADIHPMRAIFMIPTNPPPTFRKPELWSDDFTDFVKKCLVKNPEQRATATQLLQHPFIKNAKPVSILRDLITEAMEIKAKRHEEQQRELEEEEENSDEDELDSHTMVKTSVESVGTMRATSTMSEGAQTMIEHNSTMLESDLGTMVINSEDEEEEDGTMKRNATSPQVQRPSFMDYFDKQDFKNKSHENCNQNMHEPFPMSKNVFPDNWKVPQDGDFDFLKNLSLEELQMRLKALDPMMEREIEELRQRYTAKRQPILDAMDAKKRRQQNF
Chain of UniProt P48730 (whole entry, looked up): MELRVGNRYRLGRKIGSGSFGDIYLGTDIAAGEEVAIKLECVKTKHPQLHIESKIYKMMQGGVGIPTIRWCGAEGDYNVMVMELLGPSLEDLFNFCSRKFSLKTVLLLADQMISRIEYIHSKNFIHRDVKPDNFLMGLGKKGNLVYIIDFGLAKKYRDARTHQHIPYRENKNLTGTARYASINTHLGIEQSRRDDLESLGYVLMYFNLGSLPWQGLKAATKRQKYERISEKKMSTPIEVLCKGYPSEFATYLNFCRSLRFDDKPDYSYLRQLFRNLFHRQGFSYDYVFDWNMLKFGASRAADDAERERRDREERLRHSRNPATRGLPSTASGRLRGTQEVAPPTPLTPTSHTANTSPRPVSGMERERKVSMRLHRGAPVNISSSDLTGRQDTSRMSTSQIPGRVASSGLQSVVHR
Chain of UniProt O43293 (whole entry, looked up): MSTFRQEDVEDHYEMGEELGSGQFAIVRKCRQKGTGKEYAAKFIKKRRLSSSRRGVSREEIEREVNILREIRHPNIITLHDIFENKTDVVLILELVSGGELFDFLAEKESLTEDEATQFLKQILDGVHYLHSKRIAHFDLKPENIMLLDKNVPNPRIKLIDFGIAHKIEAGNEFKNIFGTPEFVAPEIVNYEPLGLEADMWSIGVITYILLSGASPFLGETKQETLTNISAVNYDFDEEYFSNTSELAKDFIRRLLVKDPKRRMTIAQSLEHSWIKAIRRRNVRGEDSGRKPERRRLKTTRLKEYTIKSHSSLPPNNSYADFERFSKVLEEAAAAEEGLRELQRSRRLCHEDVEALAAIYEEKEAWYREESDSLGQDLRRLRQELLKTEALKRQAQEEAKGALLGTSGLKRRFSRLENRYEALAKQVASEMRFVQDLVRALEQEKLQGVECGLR
Chain of UniProt P29597 (whole entry, looked up): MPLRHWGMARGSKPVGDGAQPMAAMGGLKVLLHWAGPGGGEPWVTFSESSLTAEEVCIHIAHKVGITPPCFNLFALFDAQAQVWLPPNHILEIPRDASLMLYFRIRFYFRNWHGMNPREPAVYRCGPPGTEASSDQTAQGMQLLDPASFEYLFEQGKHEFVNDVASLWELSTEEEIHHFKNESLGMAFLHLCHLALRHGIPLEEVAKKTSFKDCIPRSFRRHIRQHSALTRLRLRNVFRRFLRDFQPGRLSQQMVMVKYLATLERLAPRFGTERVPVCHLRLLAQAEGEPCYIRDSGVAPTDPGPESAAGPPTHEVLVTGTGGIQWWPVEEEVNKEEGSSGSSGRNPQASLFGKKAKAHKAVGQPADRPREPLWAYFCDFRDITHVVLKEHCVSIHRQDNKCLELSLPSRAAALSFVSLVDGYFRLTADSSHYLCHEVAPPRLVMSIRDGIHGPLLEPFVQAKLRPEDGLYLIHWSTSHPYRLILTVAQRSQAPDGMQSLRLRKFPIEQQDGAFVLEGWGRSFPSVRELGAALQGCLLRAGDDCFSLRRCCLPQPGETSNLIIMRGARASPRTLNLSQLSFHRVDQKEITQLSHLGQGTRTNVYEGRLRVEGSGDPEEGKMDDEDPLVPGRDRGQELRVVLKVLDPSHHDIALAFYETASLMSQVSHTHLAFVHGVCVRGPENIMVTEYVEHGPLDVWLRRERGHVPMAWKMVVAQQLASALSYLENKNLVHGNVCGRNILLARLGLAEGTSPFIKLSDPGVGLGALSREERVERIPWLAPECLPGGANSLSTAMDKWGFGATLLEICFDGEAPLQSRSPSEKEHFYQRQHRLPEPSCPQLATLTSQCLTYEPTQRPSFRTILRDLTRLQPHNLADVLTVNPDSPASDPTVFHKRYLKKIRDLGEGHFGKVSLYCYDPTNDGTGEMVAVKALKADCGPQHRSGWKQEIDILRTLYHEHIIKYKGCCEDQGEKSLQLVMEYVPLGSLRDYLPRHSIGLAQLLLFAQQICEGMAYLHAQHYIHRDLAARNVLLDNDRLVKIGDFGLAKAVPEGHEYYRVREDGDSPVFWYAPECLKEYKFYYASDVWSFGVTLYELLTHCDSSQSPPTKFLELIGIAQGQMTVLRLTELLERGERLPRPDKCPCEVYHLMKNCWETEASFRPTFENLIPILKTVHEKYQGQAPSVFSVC
Chain of UniProt O94921 (whole entry, looked up): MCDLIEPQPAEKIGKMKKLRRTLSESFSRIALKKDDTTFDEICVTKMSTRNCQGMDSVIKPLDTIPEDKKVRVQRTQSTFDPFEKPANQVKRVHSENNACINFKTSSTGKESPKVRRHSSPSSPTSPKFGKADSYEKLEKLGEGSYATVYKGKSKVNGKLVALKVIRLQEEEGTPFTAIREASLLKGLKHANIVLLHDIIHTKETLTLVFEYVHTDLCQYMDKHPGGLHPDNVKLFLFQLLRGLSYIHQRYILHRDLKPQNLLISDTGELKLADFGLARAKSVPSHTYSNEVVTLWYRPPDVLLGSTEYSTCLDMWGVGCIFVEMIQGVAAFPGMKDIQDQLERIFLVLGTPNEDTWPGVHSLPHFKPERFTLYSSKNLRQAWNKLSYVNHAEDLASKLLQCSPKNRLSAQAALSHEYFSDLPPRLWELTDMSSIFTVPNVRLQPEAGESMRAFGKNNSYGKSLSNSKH
Chain of UniProt Q8TBX8 (whole entry, looked up): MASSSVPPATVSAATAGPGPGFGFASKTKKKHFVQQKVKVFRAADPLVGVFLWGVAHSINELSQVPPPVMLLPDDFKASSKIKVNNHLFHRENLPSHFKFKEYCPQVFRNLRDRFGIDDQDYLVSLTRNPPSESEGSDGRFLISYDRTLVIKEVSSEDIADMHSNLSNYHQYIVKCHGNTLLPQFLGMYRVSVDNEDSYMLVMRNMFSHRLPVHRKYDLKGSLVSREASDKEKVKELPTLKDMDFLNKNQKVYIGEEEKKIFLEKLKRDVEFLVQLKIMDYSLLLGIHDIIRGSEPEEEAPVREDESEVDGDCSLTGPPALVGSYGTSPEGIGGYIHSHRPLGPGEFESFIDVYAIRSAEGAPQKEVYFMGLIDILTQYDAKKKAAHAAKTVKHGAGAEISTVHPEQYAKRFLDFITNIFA

Sample 1
Target: TAR DNA-binding protein 43, full length, His tag (TARDBP, Homo sapiens, UniProt Q13148, residues 1-414)
Technique: RNA Bind-n-Seq
Molecule type: RNA
Sample: in vitro
Concentration: 20 nM
Setting: 6-mer, flanks averaged, single round
Added: 150 mM LiCl
Reference: input library
Direction: higher = stronger binding
Quantity: 6-mer enrichment (R)
GUUACA: 0.901
ACGGGC: 0.939
ACCUGA: 0.853
UUUUAU: 1.4
GUAACC: 0.884
GAUUUC: 0.852
ACCCAC: 0.972
CUAUGU: 1.02

Sample 2
Compound: Cc1c(C(=O)O)cc(-c2ccc(C3CCNCC3)cc2)c2ccc(-c3ccc(C(F)(F)F)cc3)cc12
Technique: competition with immobilised ligand
Concentration: 1 µM
Quantity: remaining binding
Non-receptor tyrosine-protein kinase TYK2, JH2 (TYK2, Homo sapiens, UniProt P29597); binding: 100%
CDK14 (Homo sapiens, UniProt O94921); binding: 100%
VRK2 (Homo sapiens, UniProt Q86Y07); binding: 100%
CSNK1D (Homo sapiens, UniProt P48730); cell-free assay: 100%
EGFR (Homo sapiens, UniProt P00533, T790M); cell-free assay: 87%
EGFR (Homo sapiens, UniProt P00533, L858R); cell-free assay: 100%
MET (Homo sapiens, UniProt P08581, M1250T); cell-free assay: 97%
PIM3 (Homo sapiens, UniProt Q86V86); binding: 100%
DAPK3 (Homo sapiens, UniProt O43293); binding: 100%
PIP4K2C (Homo sapiens, UniProt Q8TBX8); binding: 100%
STK3 (Homo sapiens, UniProt Q13188); binding: 100%
MET (Homo sapiens, UniProt P08581, Y1235D); cell-free assay: 100%
STK10 (Homo sapiens, UniProt O94804); binding: 100%
CSNK2A2 (Homo sapiens, UniProt P19784); cell-free assay: 100%

Sample 3
Target: OGT, full length, His-tagged (human)
Technique: phage display, sequencing
Sample: in vitro
Concentration: 1 µg OGT
Setting: single substitutions, 15-mer displayed peptide, unchanged parent 16.7
Reference: input library
Direction: higher = stronger binding
Quantity: fold enrichment
Starting sequence: peptide; NSEYMPQYQIIFAHQ
NSEYMPQYQVIFAHQ [I10V]: 0.833 fold
NSEYQPQYQIIFAHQ [M5Q]: 4.69 fold
NSEYMPQYQIIFQHQ [A13Q]: 27.4 fold
NSWYMPQYQIIFAHQ [E3W]: 13 fold
NSEYMPQPQIIFAHQ [Y8P]: 0.698 fold
NSEYMPAYQIIFAHQ [Q7A]: 6.19 fold
NSEYMPQYQIIFAHG [Q15G]: 11.4 fold
NSEYMPDYQIIFAHQ [Q7D]: 0.914 fold

Sample 4
Target: RNA binding protein fox-1 homolog 2, RRM domain, GST-SBP tag (RBFOX2, Homo sapiens, UniProt O43251-10, residues 100-194)
Technique: RNA Bind-n-Seq
Molecule type: RNA
Sample: in vitro
Concentration: 365 nM
Setting: natural RNA segment, single round, ends assumed
Reference: no-protein control
Direction: higher = stronger binding
Quantity: RBNS enrichment (R)
All sequences stand within: GGGAGUUCUACAGUCCGACGAUC … UGGAAUUCUCGGGUGCCAA
Target sequence (chain): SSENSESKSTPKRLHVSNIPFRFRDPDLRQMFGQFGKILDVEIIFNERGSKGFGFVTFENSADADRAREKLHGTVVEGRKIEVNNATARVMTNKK
CAUAUGCAAAUCUUUUAUUGUAGAGGACCAGACCAUCGCUGCUGAAGGGACAGGCUGGUGGAGCCUGAGCAGGCAGGGGCUUGGCUGCCCAAGUCUAGCUCUCCAGCAGA: 0.423
AUCGGCCUCUGCUUGUACAUCCAUCCCACCCAGCAGUCGCCGAACAUCAUAGUCGGGAGCCAUUUCACCCUGUUUUUCCAGGACUGAACACCAGCUGCUGUCAAGCAAGC: 0.331
CAUUUGUAGUUGAGCGGGGGGUUUGGUUUGCUUUGGUUUAUAUUUUUUCAGUUGUUUGUUUUUGCUUGUUAUAUUAAGCAGAAAUCCUGCAAUGAAAGGUACUAUAUUUG: 1.3
GAUGAAGUGCAACUUUCAAAAACAUUUUUGAUGACAUCACCAGCCUACUGCAGAAGUGCAGGGCACCAGUAAACACCAUGUAUUAUUGAAGAUGAAUCUGUUUGUAUGUA: 0.574
AGGUUGCACCCUUAAGAGUAUUCAGAGAGCAUCAAAAGGAGCCCACACCUUCAGCAGUGAAGGAUUCUAACACAGGGAAUCUGCAGUUUGUAGCAGAAUGGUAUUUUCCU: 0.465
GGCGCCUUGAGUUGGUGGUAGACUAGGGCAAAUGCCCUCUUUAGUGAGAGACCAGAGGUUUUGUAUAAGUUAUUGUCCUGCUCCCUUUUCAGUUGUCUUGAAGAGCUCUU: 0.982
UUUUUGUACUGUAACUACCUCAUGGUUUGAAUGAUGAGCGUACUGCUGGUUGUAUUAACAGAGCACAUUUGUCGGGUGAGUCGUGUAUACAAACUUUUUUUUUUUAUCCU: 0.77
CCUGGGUUCAAGCAAUUCUCCUGCUUCAGCCUCCCGAGUAGCUGGGAUUACAGGUGUGUACCACCACGCCUGGCAAUUUUUUUGUAUUUUUAGUAGAGAUGGGGUUUCGC: 0.411

Repeated from above (sample 4):
CAUAUGCAAAUCUUUUAUUGUAGAGGACCAGACCAUCGCUGCUGAAGGGACAGGCUGGUGGAGCCUGAGCAGGCAGGGGCUUGGCUGCCCAAGUCUAGCUCUCCAGCAGA: 0.423
AUCGGCCUCUGCUUGUACAUCCAUCCCACCCAGCAGUCGCCGAACAUCAUAGUCGGGAGCCAUUUCACCCUGUUUUUCCAGGACUGAACACCAGCUGCUGUCAAGCAAGC: 0.331
CAUUUGUAGUUGAGCGGGGGGUUUGGUUUGCUUUGGUUUAUAUUUUUUCAGUUGUUUGUUUUUGCUUGUUAUAUUAAGCAGAAAUCCUGCAAUGAAAGGUACUAUAUUUG: 1.3
GAUGAAGUGCAACUUUCAAAAACAUUUUUGAUGACAUCACCAGCCUACUGCAGAAGUGCAGGGCACCAGUAAACACCAUGUAUUAUUGAAGAUGAAUCUGUUUGUAUGUA: 0.574
AGGUUGCACCCUUAAGAGUAUUCAGAGAGCAUCAAAAGGAGCCCACACCUUCAGCAGUGAAGGAUUCUAACACAGGGAAUCUGCAGUUUGUAGCAGAAUGGUAUUUUCCU: 0.465
GGCGCCUUGAGUUGGUGGUAGACUAGGGCAAAUGCCCUCUUUAGUGAGAGACCAGAGGUUUUGUAUAAGUUAUUGUCCUGCUCCCUUUUCAGUUGUCUUGAAGAGCUCUU: 0.982
